{"data": "Measured values pooled from the literature", "TMEM97": "Sigma intracellular receptor 2 (TMEM97, Homo sapiens, UniProt Q5BJF2)", "gag-pol protease": "Gag-Pol polyprotein, protease (gag-pol, Human immunodeficiency virus type 1 group M subtype B, UniProt P04585)", "Sterol carrier protein 2": "Sterol carrier protein 2 (Homo sapiens, UniProt P22307)", "MYH11 S1 fragment": "MYH11, S1 fragment (Gallus gallus, UniProt P10587)", "DRD3": "D(3) dopamine receptor (DRD3, Homo sapiens, UniProt P35462)", "BCHE": "Cholinesterase (BCHE, Homo sapiens, UniProt P06276)", "note": "Several values in a cell are separate wells, animals, samples, runs or records. ± gives the spread as reported.", "UniProt P22307, sequence (whole entry, looked up)": "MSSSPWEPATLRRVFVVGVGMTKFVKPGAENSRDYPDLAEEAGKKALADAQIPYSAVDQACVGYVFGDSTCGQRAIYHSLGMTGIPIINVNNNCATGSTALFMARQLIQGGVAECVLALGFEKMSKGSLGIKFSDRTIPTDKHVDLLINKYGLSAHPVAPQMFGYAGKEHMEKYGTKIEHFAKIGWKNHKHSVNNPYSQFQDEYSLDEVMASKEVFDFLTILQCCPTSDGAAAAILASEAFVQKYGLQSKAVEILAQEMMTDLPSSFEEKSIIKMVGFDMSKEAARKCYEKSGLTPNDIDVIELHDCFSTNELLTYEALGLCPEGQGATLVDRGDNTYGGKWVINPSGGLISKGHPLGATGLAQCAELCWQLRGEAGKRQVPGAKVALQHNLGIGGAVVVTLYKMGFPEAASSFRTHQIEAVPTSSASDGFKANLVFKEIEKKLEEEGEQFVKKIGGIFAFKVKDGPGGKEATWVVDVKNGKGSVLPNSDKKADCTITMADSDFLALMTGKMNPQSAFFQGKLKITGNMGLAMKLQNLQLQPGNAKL", "UniProt P06276, sequence (whole entry, looked up)": "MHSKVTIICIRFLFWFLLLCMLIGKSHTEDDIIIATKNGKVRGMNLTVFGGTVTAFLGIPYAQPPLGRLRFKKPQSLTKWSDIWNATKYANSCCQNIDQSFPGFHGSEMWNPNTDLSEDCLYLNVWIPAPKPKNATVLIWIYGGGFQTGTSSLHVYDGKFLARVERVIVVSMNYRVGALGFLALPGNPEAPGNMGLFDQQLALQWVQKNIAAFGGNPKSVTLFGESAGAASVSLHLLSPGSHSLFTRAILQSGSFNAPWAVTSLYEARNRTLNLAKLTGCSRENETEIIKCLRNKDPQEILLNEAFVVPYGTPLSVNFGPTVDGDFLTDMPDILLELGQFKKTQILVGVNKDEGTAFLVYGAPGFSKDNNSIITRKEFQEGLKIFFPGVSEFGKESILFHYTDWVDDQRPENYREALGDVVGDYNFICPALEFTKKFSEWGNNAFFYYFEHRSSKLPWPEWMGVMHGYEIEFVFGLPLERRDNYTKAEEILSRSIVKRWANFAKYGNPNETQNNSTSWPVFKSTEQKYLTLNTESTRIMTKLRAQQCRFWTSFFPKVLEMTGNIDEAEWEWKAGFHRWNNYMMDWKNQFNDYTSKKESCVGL", "UniProt P35462, sequence (whole entry, looked up)": "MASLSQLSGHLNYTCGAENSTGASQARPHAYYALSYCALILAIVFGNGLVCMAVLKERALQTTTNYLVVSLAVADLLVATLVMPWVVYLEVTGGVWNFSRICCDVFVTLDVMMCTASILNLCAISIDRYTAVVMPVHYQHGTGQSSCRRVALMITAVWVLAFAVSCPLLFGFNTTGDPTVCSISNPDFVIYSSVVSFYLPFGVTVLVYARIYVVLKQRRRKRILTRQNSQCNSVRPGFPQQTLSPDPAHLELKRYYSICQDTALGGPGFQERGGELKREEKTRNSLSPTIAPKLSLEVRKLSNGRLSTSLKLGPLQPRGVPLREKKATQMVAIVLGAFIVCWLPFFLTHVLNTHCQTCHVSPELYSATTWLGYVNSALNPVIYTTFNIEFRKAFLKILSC", "UniProt Q5BJF2, sequence (whole entry, looked up)": "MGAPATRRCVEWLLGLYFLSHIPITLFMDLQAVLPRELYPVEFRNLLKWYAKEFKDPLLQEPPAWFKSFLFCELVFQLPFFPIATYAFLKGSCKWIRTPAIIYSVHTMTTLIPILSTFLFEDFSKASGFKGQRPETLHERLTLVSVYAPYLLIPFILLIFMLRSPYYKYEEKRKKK", "UniProt P10587, sequence (whole entry, looked up)": "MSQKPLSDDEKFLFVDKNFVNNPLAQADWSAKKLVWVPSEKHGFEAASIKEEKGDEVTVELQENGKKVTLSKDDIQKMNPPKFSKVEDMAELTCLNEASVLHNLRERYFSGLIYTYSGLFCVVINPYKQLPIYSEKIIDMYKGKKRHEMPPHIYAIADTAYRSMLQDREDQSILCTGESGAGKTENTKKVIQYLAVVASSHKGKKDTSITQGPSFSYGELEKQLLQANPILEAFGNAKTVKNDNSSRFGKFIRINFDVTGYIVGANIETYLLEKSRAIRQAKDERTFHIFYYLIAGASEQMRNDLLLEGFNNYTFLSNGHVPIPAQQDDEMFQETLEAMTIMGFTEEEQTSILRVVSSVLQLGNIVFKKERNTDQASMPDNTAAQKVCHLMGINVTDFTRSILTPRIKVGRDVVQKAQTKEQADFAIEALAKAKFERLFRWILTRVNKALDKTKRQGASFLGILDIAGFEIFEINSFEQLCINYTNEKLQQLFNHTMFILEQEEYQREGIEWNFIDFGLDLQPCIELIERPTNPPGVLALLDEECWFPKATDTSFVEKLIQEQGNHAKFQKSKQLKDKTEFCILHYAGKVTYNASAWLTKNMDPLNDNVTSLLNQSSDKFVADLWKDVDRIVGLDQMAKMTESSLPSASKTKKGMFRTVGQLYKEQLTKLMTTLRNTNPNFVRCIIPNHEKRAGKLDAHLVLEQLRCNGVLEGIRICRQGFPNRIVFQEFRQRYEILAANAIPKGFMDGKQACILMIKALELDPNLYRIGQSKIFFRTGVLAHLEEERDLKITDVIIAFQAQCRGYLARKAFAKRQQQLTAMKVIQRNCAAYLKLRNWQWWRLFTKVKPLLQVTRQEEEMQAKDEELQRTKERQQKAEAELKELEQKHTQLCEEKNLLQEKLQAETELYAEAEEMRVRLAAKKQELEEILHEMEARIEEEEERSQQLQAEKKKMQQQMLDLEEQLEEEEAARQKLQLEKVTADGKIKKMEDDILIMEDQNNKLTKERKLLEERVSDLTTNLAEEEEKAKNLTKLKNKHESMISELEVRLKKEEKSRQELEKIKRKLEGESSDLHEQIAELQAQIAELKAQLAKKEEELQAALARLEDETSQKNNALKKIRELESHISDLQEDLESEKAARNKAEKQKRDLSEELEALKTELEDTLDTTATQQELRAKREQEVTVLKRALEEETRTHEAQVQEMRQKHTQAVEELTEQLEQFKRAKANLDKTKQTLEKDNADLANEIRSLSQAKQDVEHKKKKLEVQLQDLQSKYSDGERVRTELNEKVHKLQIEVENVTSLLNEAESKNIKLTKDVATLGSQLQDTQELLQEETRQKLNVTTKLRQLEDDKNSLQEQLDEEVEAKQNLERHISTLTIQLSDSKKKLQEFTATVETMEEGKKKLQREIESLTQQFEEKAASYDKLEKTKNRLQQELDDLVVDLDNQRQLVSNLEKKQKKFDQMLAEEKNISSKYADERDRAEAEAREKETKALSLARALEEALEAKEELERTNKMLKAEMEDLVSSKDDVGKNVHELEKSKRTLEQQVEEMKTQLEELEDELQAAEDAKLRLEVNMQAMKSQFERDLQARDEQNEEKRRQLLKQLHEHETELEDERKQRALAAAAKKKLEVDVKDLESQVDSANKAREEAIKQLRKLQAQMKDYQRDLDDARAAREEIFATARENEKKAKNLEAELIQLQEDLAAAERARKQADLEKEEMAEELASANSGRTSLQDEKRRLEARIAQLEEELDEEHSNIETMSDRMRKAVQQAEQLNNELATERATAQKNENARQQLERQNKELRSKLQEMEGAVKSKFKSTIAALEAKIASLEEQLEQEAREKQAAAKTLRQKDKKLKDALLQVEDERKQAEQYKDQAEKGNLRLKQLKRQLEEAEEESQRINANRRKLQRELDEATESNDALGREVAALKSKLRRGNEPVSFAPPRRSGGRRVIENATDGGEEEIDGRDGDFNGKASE", "UniProt P60651, sequence (whole entry, looked up)": "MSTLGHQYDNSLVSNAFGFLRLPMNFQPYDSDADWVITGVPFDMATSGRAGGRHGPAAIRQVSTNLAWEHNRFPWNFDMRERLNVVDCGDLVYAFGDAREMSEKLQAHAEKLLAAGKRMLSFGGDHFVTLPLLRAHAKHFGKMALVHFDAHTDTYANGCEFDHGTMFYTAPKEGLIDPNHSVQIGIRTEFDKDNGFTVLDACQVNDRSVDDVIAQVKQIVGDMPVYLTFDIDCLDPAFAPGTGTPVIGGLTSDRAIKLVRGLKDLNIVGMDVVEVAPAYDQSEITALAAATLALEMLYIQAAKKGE", "UniProt P04843, sequence (whole entry, looked up)": "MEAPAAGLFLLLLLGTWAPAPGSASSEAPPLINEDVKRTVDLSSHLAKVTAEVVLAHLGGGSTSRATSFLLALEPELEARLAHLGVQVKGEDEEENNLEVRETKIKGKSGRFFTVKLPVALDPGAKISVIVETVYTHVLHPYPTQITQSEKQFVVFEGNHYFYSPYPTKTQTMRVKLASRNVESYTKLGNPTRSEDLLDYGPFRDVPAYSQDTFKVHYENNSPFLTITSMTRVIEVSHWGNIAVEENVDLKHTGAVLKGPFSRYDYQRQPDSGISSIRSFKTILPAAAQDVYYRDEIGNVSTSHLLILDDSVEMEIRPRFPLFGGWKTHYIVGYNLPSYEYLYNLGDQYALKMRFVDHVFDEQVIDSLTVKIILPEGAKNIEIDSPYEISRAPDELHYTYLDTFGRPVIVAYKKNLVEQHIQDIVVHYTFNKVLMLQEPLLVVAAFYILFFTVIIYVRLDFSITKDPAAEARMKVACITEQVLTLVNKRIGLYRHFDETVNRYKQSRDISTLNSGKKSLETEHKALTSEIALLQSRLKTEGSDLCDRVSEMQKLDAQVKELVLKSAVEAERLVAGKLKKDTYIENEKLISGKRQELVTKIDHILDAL"}
{"SMILES": "O=C(N/N=C/c1cccnc1)C1=NNC2CCCCC12 (stereo not shown)", "target": "Gag-Pol polyprotein, integrase with LEDGF/p75 (gag-pol, Human immunodeficiency virus 1, UniProt P12497)", "assay": "LEDGF/p75-integrase interaction, inhibitor, AlphaScreen", "endpoint": "IC50", "value": "> 50 µM"}
{"SMILES": "O=C[C@H](O)COP(=O)(O)O", "target": "dxs (Pseudomonas aeruginosa, UniProt Q9KGU7, R482A)", "endpoint": "Ki", "value": "3200 µM and ~3200 µM"}
{"SMILES": "CCCCC1CNC2CCc3ccc(OC)cc3C12 (racemic)", "target": "TMEM97", "assay": "binding, PDSP radioligand binding", "endpoint": "Ki", "value": "0.0025 µM"}
{"SMILES": "COc1ccc(S(=O)(=O)N(CC(C)C)C[C@@H](O)[C@H](Cc2ccccc2)NC(=O)O[C@H]2CCC[C@@]23CCO[C@@H](c2cc(OC)cc(OC)c2)C3)cc1", "target": "gag-pol protease", "assay": "enzyme activity, inhibitor, fluorometric", "endpoint": "Ki", "value": "0.00264 µM"}
{"SMILES": "O=C(O)C(F)(F)C(F)(F)C(F)(F)C(F)(F)C(F)(F)C(F)(F)C(F)(F)C(F)(F)C(F)(F)C(F)(F)C(F)(F)F", "target": "Sterol carrier protein 2", "endpoint": "Ki", "value": "1.04 ± 0.04 µM"}
{"SMILES": "COc1cc(N2CC[C@@]3(O)C(=O)c4cc(C)c(C)cc4N=C23)ccn1", "target": "MYH11 S1 fragment", "assay": "ATPase activity, inhibitor", "endpoint": "Ki", "value": "4 µM"}
{"SMILES": "CC(=O)P(=O)(O)OCCc1cn([C@H](Cc2ccccc2)C(=O)O)nn1", "target": "dxs (Pseudomonas aeruginosa, UniProt Q9KGU7, R106A)", "assay": "inhibitor", "endpoint": "Ki", "value": "43 ± 9 µM"}
{"SMILES": "C[C@]12CC[C@H](O)C[C@H]1CC[C@@H]1[C@@H]2CC[C@]2(C)[C@@H](C3=CC(=O)OC3)CC[C@]12O", "target": "OSBP (Homo sapiens, UniProt P22059)", "endpoint": "Ki", "value": "> 100 µM"}
{"SMILES": "CC/N=c1/scc(-c2cc(OC)ccc2OC)n1/N=C(\\C)c1ccco1", "target": "Gag-Pol polyprotein, integrase (gag-pol, Human immunodeficiency virus 1, UniProt P12497)", "assay": "strand transfer activity, inhibitor", "setting": "wild-type integrase", "endpoint": "IC50", "value": "> 100 µM"}
{"SMILES": "OC(CCN1CCCCC1)(c1ccccc1)C1CCCCC1 (stereo not shown)", "target": "TMEM97", "assay": "binding", "endpoint": "Ki", "value": "1.91 µM"}
{"SMILES": "O[C@H](CCCN1CCC(O)(c2ccc(Cl)cc2)CC1)c1ccc(F)cc1", "target": "DRD3", "endpoint": "Ki", "value": "5.4 ± 0.353 µM"}
{"SMILES": "O=C(O)C(F)(F)C(F)(F)C(F)(F)C(F)(F)C(F)(F)C(F)(F)C(F)(F)C(F)(F)C(F)(F)C(F)(F)C(F)(F)C(F)(F)C(F)(F)F", "target": "Sterol carrier protein 2", "assay": "binder, NBD-stearic acid displacement fluorescence", "setting": "recombinant protein", "endpoint": "Ki", "value": "3.3 ± 0.31 µM"}
{"SMILES": "C#CCSCC(=O)O", "target": "putA (Sinorhizobium meliloti, UniProt F7X6I3)", "endpoint": "Ki", "value": "1030 ± 90 µM"}
{"SMILES": "Cc1ccc2cc(N3CCC4(O)C(=O)c5cc(C)c(C)cc5N=C34)ccc2n1 (stereo not shown)", "target": "MYH11 S1 fragment", "assay": "ATPase activity, inhibitor", "endpoint": "Ki", "value": "17 µM"}
{"SMILES": "O=c1nc(-c2ccccn2)sc2ccccc12", "target": "BCHE", "assay": "enzyme activity, fluorescence", "endpoint": "IC50", "value": "1.26 ± 0.6 µM"}
{"SMILES": "C[C@H]1CN(c2n[nH]c3nc(N[C@H]4CC[C@H](NS(=O)(=O)CCC(F)(F)F)CC4)ncc23)CCO1", "target": "Dolichyl-diphosphooligosaccharide--protein glycosyltransferase subunit 1 (Homo sapiens, UniProt P04843)", "assay": "biochemical", "endpoint": "IC50", "value": "≥ 20 µM"}
{"SMILES": "CCCN(CCc1ccsc1)C1CCc2c(O)cccc2C1 (stereo not shown)", "target": "BCHE", "assay": "inhibitor", "setting": "with Triton", "endpoint": "IC50", "value": "10.9 µM"}
{"SMILES": "COc1cc2c3cc1Oc1cc(ccc1O)C[C@@H]1c4c(cc(OC)c(O)c4Oc4ccc(cc4)C[C@@H]3N(C)CC2)CC[N+]1(C)C", "target": "Chrnd/Chrna1/Chrne (Mus musculus, UniProt P02716+P04756+P20782)", "assay": "inhibitor", "test system": "mouse hemidiaphragm", "setting": "one site per receptor model", "endpoint": "Ki", "value": "~0.04 µM"}
{"SMILES": "O=C(O)C(F)(F)C(F)(F)C(F)(F)C(F)(F)C(F)(F)C(F)(F)C(F)(F)C(F)(F)F", "target": "Sterol carrier protein 2", "assay": "binder, NBD-stearic acid displacement fluorescence", "setting": "recombinant protein", "endpoint": "Ki", "value": "> 64 µM"}
{"SMILES": "COc1ccc(S(=O)(=O)N(CC(C)C)C[C@@H](O)[C@H](Cc2ccccc2)NC(=O)O[C@H]2C[C@@H]3C[C@H]4[C@H](OC[C@H]42)O3)cc1", "target": "gag-pol protease", "assay": "enzyme activity, inhibitor", "endpoint": "Ki", "value": "2e-06 µM"}
{"SMILES": "OC(c1ccc(F)cc1)C(F)(F)CCN1CCC(O)(c2ccc(Cl)cc2)CC1 (racemic)", "target": "DRD3", "endpoint": "Ki", "value": "3.82 ± 0.399 µM"}
{"SMILES": "CC(C)=CCN=C(N)N", "target": "speB (Escherichia coli, UniProt P60651)", "assay": "competitive inhibitor", "setting": "pH 7.5, added: agmatine", "endpoint": "Ki", "value": "7.48 ± 2.12 µM"}
{"note": "Excerpt of the above:"}
{"SMILES": "O=C(O)C(F)(F)C(F)(F)C(F)(F)C(F)(F)C(F)(F)C(F)(F)C(F)(F)C(F)(F)F", "target": "Sterol carrier protein 2", "assay": "binder, NBD-stearic acid displacement fluorescence", "setting": "recombinant protein", "endpoint": "Ki", "value": "> 64 µM"}
{"SMILES": "COc1ccc(S(=O)(=O)N(CC(C)C)C[C@@H](O)[C@H](Cc2ccccc2)NC(=O)O[C@H]2C[C@@H]3C[C@H]4[C@H](OC[C@H]42)O3)cc1", "target": "gag-pol protease", "assay": "enzyme activity, inhibitor", "endpoint": "Ki", "value": "2e-06 µM"}
{"SMILES": "OC(c1ccc(F)cc1)C(F)(F)CCN1CCC(O)(c2ccc(Cl)cc2)CC1 (racemic)", "target": "DRD3", "endpoint": "Ki", "value": "3.82 ± 0.399 µM"}
